Results of several laboratories.
Parts stem from different laboratories: compare values within a part only. Substitutions count along the parent as printed.

Study 1
Target: CCNB1, cyclin fold, Cln2 fusion (human)
Technique: yeast growth competition, sequencing
Matrix: yeast
Notes: weak parent motif
Reference: not given
Direction: higher = stronger binding
Starting sequence: FZR1 docking peptide (human); QDYERRLLRQIVI
Substitution	normalised enrichment score
ADYERRLLRQIVI [Q1A]	0.56
QDYERRLARQIVI [L8A]	0.278
QDYERRLLAQIVI [R9A]	-0.839
QDYERRLFRQIVI [L8F]	0.176
QDYEKRLFRQIVI [R5K L8F]	0.173
QDYERRLLRQAVI [I11A]	1.36
QDYERALLRQIVI [R6A]	0.764
QDYEARALRQIVI [R5A L7A]	0.233
QAYERRLLRQIVI [D2A]	0.488
QDYERRLLRQIAI [V12A]	-0.181

Study 2
Target: RING finger protein unkempt homolog, zinc fingers 1-6, GST-SBP tag (UNK, Homo sapiens, UniProt Q9C0B0, residues 30-357)
Chain of UniProt Q9C0B0 (30-357, looked up): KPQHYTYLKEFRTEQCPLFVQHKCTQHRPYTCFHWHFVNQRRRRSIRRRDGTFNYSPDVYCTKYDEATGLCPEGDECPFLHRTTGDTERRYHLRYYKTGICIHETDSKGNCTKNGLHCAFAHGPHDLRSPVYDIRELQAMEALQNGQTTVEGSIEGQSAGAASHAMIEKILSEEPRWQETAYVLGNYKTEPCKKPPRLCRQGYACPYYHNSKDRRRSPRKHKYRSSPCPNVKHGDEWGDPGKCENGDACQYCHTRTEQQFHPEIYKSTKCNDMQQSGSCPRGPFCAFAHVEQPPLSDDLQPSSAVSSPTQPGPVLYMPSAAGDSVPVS
Technique: RNA Bind-n-Seq
Form: RNA
Matrix: in vitro
Concentration: not given
Notes: RNA with constant flanks, human and mouse sites, ends assumed
Reference: input RNA pool
Direction: higher = stronger binding
Oligonucleotide	bound/input enrichment
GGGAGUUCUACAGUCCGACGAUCAGAUACAGGCAAAGUUGAAUCUUCUGUCUUCCUGGCAAAAAUGGCAUAAAAACUGAGUUGCUAGCUCAAAUUCCUGGGUUUCAUGGAAUUAUGAUUGAGGCACUACCCUUGUAGUGGCCGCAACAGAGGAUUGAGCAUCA	0.222 ratio
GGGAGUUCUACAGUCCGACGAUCCUGCUGCAGGGUUGGUACAUUGUGACCUAUGCCUUGGGGAUCUACCAUCUAAAUCUUUUCAUAGCUUUUCUUUCUCCCAAAGUGGAUCCUUCCUUAAUGGAAGACUCAGAUGACGGUCCUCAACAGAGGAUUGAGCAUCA	0.683 ratio
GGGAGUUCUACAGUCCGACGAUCCUGGGGCCAUUGGAGGCCCACUGUAGGUGGGAGGGAGCUGAUUUUGGGGUGGGGGGUGGGACUAGAGGGCAAUACUGAAGGGGUUAAACAGGUUUUUGCUCCUCAAGAAUUUGUUUGCCUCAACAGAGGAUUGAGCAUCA	1.05 ratio
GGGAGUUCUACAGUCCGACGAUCCUUUGUGGGCAGCGAGACCAUGCCUCCAACAUCUACAAGGUGGAGGGCGGCUGCAUCACCAAGUUGGAGACCUUCAUCCAGGAGCACCUGAGGGUCAUUGGGGCUGUGGGGAUCGGCAUUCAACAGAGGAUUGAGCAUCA	0.107 ratio
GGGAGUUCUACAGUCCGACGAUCGAGAACAUUAGGCUAAAUGAUUUCCGAGUUUCCAGCUAGUCCUAGAGUUCUAUAUUUCUACAUAGUUGAAUUAUUUUAUCAUGCUGUUGCUGGGGAAUAUGACUAACCCUUUUGAAGCUACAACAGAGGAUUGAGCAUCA	6.07 ratio
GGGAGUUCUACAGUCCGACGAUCAUCUCUUUUCCCCUGUCCUGAUUUUAAAAGCCCCCUCCUUUUUUUUUUUUUUUUUCUUUUUUUAGGCAUAUGUAGUAAUAUUAGAAACAUUUAAUUUGGGAAACUUUGAUUCUUGAAAGACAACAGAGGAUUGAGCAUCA	33.9 ratio
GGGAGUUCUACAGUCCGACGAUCAAGAUAAAACAAGAAAUCCUCCCUGAAGAACGAAUGAAUGGACAAGAAGUGUUUUAUCUGACUUACACCCCUGAAGAUGUCGAAGGGAACGUUCAGCUGGAAACUGGAGAUAAAAUAAACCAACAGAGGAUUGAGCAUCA	0.203 ratio
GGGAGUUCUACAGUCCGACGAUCGGAGCAUUGCCCCCUGACCUCAGCUACAUCGUGCGAGCUAGGCAUGGUGGUGAGGACUACGUCUUCUCCCUGCUCACGGGCUACUGCGAGCCACCCACCGGGGUGUCACUGCGGGAAGGUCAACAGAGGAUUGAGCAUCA	1.25 ratio

Study 3
Target: RNA binding protein fox-1 homolog 2, RRM domain, GST-SBP tag (RBFOX2, Homo sapiens, UniProt O43251-10, residues 100-194)
Technique: RNA Bind-n-Seq
Form: RNA
Matrix: in vitro
Concentration: 365 nM
Notes: natural RNA segment, single round, ends assumed
Reference: no-protein control
Direction: higher = stronger binding
Target sequence (chain): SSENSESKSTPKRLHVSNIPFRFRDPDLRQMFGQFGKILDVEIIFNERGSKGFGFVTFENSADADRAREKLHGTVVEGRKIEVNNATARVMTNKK
Oligonucleotide	RBNS enrichment (R)
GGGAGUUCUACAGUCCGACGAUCCUUUGCAAAAUGUAUGUUACAAUAGAUAGUGUCAUGUUGCAGGUUCAACGUUAUUUACAUGUAAAUAGACAAAAGGAAACAUUUGCCAAAAGCGGCAGAUCUUUACUGAAUGGAAUUCUCGGGUGCCAA	0.332
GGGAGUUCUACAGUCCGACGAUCUUUGUGCCAUUUACAAGUGGAAAUAAAUUUUAUUAUACCAUGAUCUACUGGCGUUUUAAAACUGUUAAAUGUGCACAUUUUGGGUAUAGCUAUUUUCACUUGUAUGUAUAUGGAAUUCUCGGGUGCCAA	0.733
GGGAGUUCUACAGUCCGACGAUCCCACCCUCAUUACAUCAUCAGGACUUGAAGCCAAGGGUUAACCCAGCAAGCUACAAAGAGGGUGUGUCACACUGAAACUCAAUAGUUGAGUUUGGCUGUUGUUGCAGGAAUGGAAUUCUCGGGUGCCAA	0.377
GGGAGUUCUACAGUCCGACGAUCGGUUGUUUGGACCGAUAAGUGUGCUUAAUCCUGAGGCAAAGUAGUGAAUAUGUUUUAUAUGUUAUGAAGAAAAGAAUUGUUGUAAGUUUUUGAUUCUACUCUUAUAUGCUUGGAAUUCUCGGGUGCCAA	1.32
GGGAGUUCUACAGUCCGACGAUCACAGUUUACAGAACUCAUGUAACUUGUAGCUAUAAACAUUUUGUGCCAUUAAAGCUCUCACAAAACCGCCUGUCCAUAUAUCAUUUUGACUUCACUCUUGUUGACAAAAAUGGAAUUCUCGGGUGCCAA	0.381
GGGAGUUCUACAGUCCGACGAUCUCUGCUGAUAGUCCGUGCUACAUUAAGGGACUGAGCAGAGAACACUCAGUCAAGUCCUGAUCCAUUUCGUCAUGAAGAGAGCAGGACCUUUCCAUUCUAUGAAGGGUGCGUGGAAUUCUCGGGUGCCAA	0.494
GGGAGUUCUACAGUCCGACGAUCAUCCCUCCUCUGCCAAUAUCGCUACAACUCCUGCCUCCAGCACUAGGCUAUAACUUUGGAGUGAUAAGUCCUAUGGCUUUCUACAGUAGAGAACCACCCAAGGGUGUCGAUGGAAUUCUCGGGUGCCAA	0.49
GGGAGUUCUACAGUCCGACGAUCUGGGUGUGGAUGAGUAUUUUUCUGACCCCAGCCCUGCAGUGGAACCUAAUAAAAGCACCUGAAGCGAUGUCCUGCUCCCAGUGCAUUGUUCCUGUGCCCAGAACCACAGUUGGAAUUCUCGGGUGCCAA	0.202

Study 4
Target: Fragile X messenger ribonucleoprotein 1, C-terminal low-complexity region (Fmr1, Mus musculus, UniProt P35922)
Technique: RNA Bind-n-Seq
Form: RNA
Matrix: in vitro
Concentration: 200 nM
Notes: whole 134-nt RNA, ends assumed
With: 150 mM KCl
Reference: input library
Direction: higher = stronger binding
Oligonucleotide	log2 enrichment
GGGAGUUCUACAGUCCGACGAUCUGUGCUACACAUCGUAUGUACCGAAUCGGCCCCCCCGGGGCCCCCCCGGGGCCCCCCCGGGGAAAGUAUUAUGUUACGCCGUUCGGAUCUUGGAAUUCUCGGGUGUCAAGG	-1.93
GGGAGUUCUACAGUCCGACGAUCCACAGACAACACGCACCCACACAGACACAGAGGGAAGGGGUUGGGAAAAGGACAGGGUGCACAGCAGGGCGGGGUAGGACCCCAGCCCCUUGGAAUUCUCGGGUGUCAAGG	0.591
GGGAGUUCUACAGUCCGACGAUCGUCCUGUGCUACACAUCGUAUGUACCGAAUCGGGGUUUUUGGGUUUUUGGUUUUUGGGAAAGUAUUAUGUUACGCCGUUCGGAUCUGCACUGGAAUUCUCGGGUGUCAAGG	-0.339
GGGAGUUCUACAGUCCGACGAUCCACAGACAACACGCACCCACACAGACACAGAGGGAAGGGGUUGGGAUGGGGACAGGGUGCACAGCAGGGCGGGGUAGAAACCCAGCCCCUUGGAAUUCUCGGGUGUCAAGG	1.37
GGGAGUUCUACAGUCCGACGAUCAGUCCUGUGCUACACAUCGUAUGUACCGAAUCGGGAAAAAAAGGGUUUUUGGGAGGGAAAGUAUUAUGUUACGCCGUUCGGAUCUGCACUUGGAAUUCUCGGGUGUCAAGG	0.414
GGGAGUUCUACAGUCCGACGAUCUAACUUUAGAGGAGGACCUGAUGGAUAUGGCAGUGGACGUGGAUUUGGGGAUGGCUAUAAUGGGUAUGGAGGAGGACCUGGAGGUGGCAAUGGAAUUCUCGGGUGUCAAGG	0.362
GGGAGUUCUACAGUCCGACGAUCUGAUGAUAGUAGCAGAGAAGAUGAACAUACACAUACUAACAGUGUCACGAACUCCAGUAGUAUUGUGGACCUGCCCGUUCACCAACUCUCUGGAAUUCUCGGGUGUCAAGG	0.316
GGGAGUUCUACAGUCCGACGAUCAGUCCUGUGCUACACAUCGUAUGUACCGAAUCGGAAAAAAAGGUUUUUGGUUUUUGGAAAGUAUUAUGUUACGCCGUUCGGAUCUGCACUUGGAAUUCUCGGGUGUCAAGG	-1.36
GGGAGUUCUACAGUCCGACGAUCCACAGACAUCACGCACCCACACAGACACAGAGGGAAGGGGUUGGGAUGGGGACAGGGUGCACAGCAGGGCGGGGUAGGACCCCAGCCCCUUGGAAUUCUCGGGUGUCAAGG	1.36
